# Measurements from different studies.
# ± gives the spread as reported.
Structure (SMILES),test system,setting,endpoint,result
CC(C)N1CCCCC1C(=O)NC(Cc1ccc(-c2ccccc2)cc1)B(O)O (stereo not shown),"rat, plasma","oral, 1 mg/kg",Tmax,0.5 h
O=C1NC2(CC2)COc2ncc(F)cc2[C@H]2COCCN2c2ccn3ncc1c3n2,"Sprague-Dawley rat, male, serum","oral, 10 mg/kg/day, 4 weeks daily, end of recovery period",aspartate aminotransferase activity,99.2 ± 26.7 U/L
CCN(C)C(=O)Oc1ccccc1/C=C1\Cc2cc(OC)c(OC)cc2C1=O,"male Sprague-Dawley rat, plasma","oral, 100 mg/kg, single dose",Tmax,7.6 h
CCCCCCCCCCCCCCCC(=O)N[C@@H](CCC(=O)NCCOCCOCCC(=O)NCCOCCOCCC(=O)NCCCC[C@H](NC(=O)[C@H](CC(=O)O)NC(=O)[C@H](CC(C)C)NC(=O)[C@H](Cc1ccc(O)cc1)NC(=O)[C@H](CCCCN)NC(=O)[C@H](CO)NC(=O)[C@H](Cc1ccc(O)cc1)NC(=O)[C@H](CC(=O)O)NC(=O)[C@H](CO)NC(=O)[C@@H](NC(=O)[C@H](Cc1ccccc1)NC(=O)[C@@H](NC(=O)CNC(=O)[C@H](CCC(N)=O)NC(=O)[C@@H](CO)NC(=O)[C@@H](N)Cc1c[nH]cn1)[C@@H](C)O)[C@@H](C)O)C(=O)N[C@@H](CCCNC(=N)N)C(=O)N[C@@H](CCCNC(=N)N)C(=O)N[C@@H](C)C(=O)N[C@@H](CCC(N)=O)C(=O)N[C@@H](CC(=O)O)C(=O)N[C@@H](Cc1ccccc1)C(=O)N[C@H](C(=O)N[C@@H](CCC(N)=O)C(=O)N[C@@H](Cc1c[nH]c2ccccc12)C(=O)N[C@@H](CC(C)C)C(=O)N[C@@H](CC(C)C)C(=O)N[C@@H](CC(N)=O)C(=O)N[C@H](C(=O)NCC(=O)NCC(=O)N1CCC[C@H]1C(=O)N[C@@H](CO)C(=O)N[C@@H](CO)C(=O)NCC(=O)N[C@@H](C)C(=O)N1CCC[C@H]1C(=O)N1CCC[C@H]1C(=O)N1CCC[C@H]1C(=O)N[C@@H](CO)C(N)=O)[C@@H](C)O)C(C)C)C(=O)O,"rhesus monkey, male, plasma","subcutaneous, 20 µg/kg, day 1, toxicokinetics, median",Tmax,1 h
CC1(C)C(=O)N(c2ccc(C#N)c(C(F)(F)F)c2)C(=S)N1c1ccc(C(N)=O)c(F)c1,"healthy male humans, plasma","oral, 160 mg, fasting, soft capsules",Tmax,228 ± 106 h
NC1CCN(C(=O)Oc2ccc(C3CCCC4(C3)OOC3(O4)C4CC5CC(C4)CC3C5)cc2)CC1 (racemic),"male Sprague-Dawley rat, plasma","oral, 50 mg/kg",Tmax,8 h
CCCCCCCCCCCCCC(=O)N[C@H](CCN)C(=O)N[C@@H]1C(=O)N[C@@H](CCN)C(=O)N[C@@H](CC(C)C)C(=O)N[C@@H](CCN)C(=O)N[C@H](Cc2ccccc2)C(=O)N[C@@H](CC(C)C)C(=O)N[C@@H](CCN)C(=O)N[C@H](CCN)C(=O)N[C@@H](C(C)C)C(=O)N[C@@H](CC(=O)O)C(=O)O[C@@H]1C,"rat, plasma","subcutaneous, 10 mg/kg",Tmax,8 h
C[C@H]1C(=O)O[C@@H]2O[C@@]3(C)CC[C@@H]4[C@@]2(OO3)[C@H]1CC[C@]4(C)O,human,"dose not given, day 1",Tmax,1.7 ± 0.8 h
CC1(C)C(=O)N(c2ccc(C#N)c(C(F)(F)F)c2)C(=S)N1c1ccc(C(=O)O)c(F)c1,"human, male, plasma","oral, 160 mg, single dose, after high-fat meal",Tmax,67.6 ± 56.6 h
CCOc1ccccc1-n1c(CN2CCNCC2)nc2ccccc2c1=O,"C57BL/6 mouse, male, plasma","oral, 6 mg/kg",Tmax,1 h

# Excerpt of the above:
Structure (SMILES),test system,setting,endpoint,result
CC1(C)C(=O)N(c2ccc(C#N)c(C(F)(F)F)c2)C(=S)N1c1ccc(C(=O)O)c(F)c1,"human, male, plasma","oral, 160 mg, single dose, after high-fat meal",Tmax,67.6 ± 56.6 h
CCCCCCCCCCCCCCCC(=O)N[C@@H](CCC(=O)NCCOCCOCCC(=O)NCCOCCOCCC(=O)NCCCC[C@H](NC(=O)[C@H](CC(=O)O)NC(=O)[C@H](CC(C)C)NC(=O)[C@H](Cc1ccc(O)cc1)NC(=O)[C@H](CCCCN)NC(=O)[C@H](CO)NC(=O)[C@H](Cc1ccc(O)cc1)NC(=O)[C@H](CC(=O)O)NC(=O)[C@H](CO)NC(=O)[C@@H](NC(=O)[C@H](Cc1ccccc1)NC(=O)[C@@H](NC(=O)CNC(=O)[C@H](CCC(N)=O)NC(=O)[C@@H](CO)NC(=O)[C@@H](N)Cc1c[nH]cn1)[C@@H](C)O)[C@@H](C)O)C(=O)N[C@@H](CCCNC(=N)N)C(=O)N[C@@H](CCCNC(=N)N)C(=O)N[C@@H](C)C(=O)N[C@@H](CCC(N)=O)C(=O)N[C@@H](CC(=O)O)C(=O)N[C@@H](Cc1ccccc1)C(=O)N[C@H](C(=O)N[C@@H](CCC(N)=O)C(=O)N[C@@H](Cc1c[nH]c2ccccc12)C(=O)N[C@@H](CC(C)C)C(=O)N[C@@H](CC(C)C)C(=O)N[C@@H](CC(N)=O)C(=O)N[C@H](C(=O)NCC(=O)NCC(=O)N1CCC[C@H]1C(=O)N[C@@H](CO)C(=O)N[C@@H](CO)C(=O)NCC(=O)N[C@@H](C)C(=O)N1CCC[C@H]1C(=O)N1CCC[C@H]1C(=O)N1CCC[C@H]1C(=O)N[C@@H](CO)C(N)=O)[C@@H](C)O)C(C)C)C(=O)O,"rhesus monkey, male, plasma","subcutaneous, 20 µg/kg, day 1, toxicokinetics, median",Tmax,1 h
